Measurements gathered from unrelated publications.
Lines come from different studies, so protocols differ. pKd: −log10 of the molar value.
T1: RNA aptamer, 2'-F pyrimidines; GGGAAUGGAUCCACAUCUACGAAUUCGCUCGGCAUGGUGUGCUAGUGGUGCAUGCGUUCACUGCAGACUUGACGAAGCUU
T2: RNA aptamer A13U; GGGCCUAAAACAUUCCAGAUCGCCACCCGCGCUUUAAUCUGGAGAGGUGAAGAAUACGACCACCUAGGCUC
T3: RNA aptamer; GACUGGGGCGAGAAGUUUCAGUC
T4: RNA aptamer truncated FMN aptamer; GGUACUUCGGGAAG
T5: RNA aptamer A9G; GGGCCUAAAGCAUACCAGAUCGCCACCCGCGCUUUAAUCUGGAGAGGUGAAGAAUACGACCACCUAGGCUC
T6: RNA aptamer, tobramycin-binding; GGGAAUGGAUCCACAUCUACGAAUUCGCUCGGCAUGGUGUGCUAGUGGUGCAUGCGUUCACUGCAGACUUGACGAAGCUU
T7: RNA aptamer; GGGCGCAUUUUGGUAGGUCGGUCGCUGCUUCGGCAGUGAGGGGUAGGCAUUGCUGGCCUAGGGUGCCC
T8: RNA aptamer A50U; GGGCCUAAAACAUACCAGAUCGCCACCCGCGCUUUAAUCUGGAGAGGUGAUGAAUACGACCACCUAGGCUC
T9: RNA aptamer, dimerized, 6-nt linker; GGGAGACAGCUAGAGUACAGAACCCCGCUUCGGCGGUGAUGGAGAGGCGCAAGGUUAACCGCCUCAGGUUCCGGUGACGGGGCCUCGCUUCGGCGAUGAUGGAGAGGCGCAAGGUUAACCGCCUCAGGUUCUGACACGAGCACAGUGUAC

With `CN[C@@H]1[C@H](O[C@H]2[C@H](O[C@H]3[C@H](O)[C@@H](O)[C@H](N=C(N)N)[C@@H](O)[C@@H]3N=C(N)N)O[C@@H](C)[C@]2(O)C=NNC(=O)CCOCCOCCOCCOCCNC(=O)CCCC[C@@H]2SC[C@@H]3NC(=O)N[C@@H]32)O[C@@H](CO)[C@H](O)[C@H]1O` the pKd was 7.13 (T1, RNA aptamer, 2'-F pyrimidines; SPR; apparent).
`CN(C)[C@@H]1C(=O)C(C(N)=O)=C(O)[C@@]2(O)C(=O)C3=C(O)c4c(O)cccc4[C@@](C)(O)[C@H]3C[C@@H]12` gave a pKd of 6.72 (T2, RNA aptamer A13U; ITC; pH 7.5, 25 °C, MgCl2 10 mM).
`NC[C@@H]1O[C@H](O[C@H]2[C@@H](O)[C@H](O[C@@H]3[C@@H](O)[C@H](N)C[C@H](N)[C@H]3O[C@H]3O[C@H](CN)[C@@H](O)[C@H](O)[C@H]3N)O[C@@H]2CO)[C@H](N)[C@@H](O)[C@@H]1O` has a pKd of 7.47 (T3, RNA aptamer; ITC; NaCl 200 mM).
For `Cc1cc2nc3c(=O)[nH]c(=O)nc-3n(C[C@H](O)[C@H](O)[C@H](O)COP(=O)(O)OP(=O)(O)OC[C@H]3O[C@@H](n4cnc5c(N)ncnc54)[C@H](O)[C@@H]3O)c2cc1C`, the pKd was 4.92 (T4, RNA aptamer truncated FMN aptamer; fluorescence quenching).
With `CN(C)C1C(O)=C(C#N)C(=O)C2(O)C(O)=C3C(=O)c4c(O)cccc4C(C)(O)C3CC12` (stereo not drawn) the pKd was 5.58 (T5, RNA aptamer A9G; fluorescence titration; pH 7.5, 25 °C, MgCl2 10 mM).
`CNC1C(OC2OC(CO)C(N)C(O)C2O)OC2CC(N)C(OC3C(N)CC(NC(=O)CCOCCOCCOCCOCCOCCOCCOCCOCCOCCOCCOCCOCCNC(=O)CCCC[C@@H]4SC[C@@H]5NC(=O)N[C@@H]54)C(O)C3O)OC2C1O` (stereo partly drawn) has a pKd of 6.24 (T6, RNA aptamer, tobramycin-binding; SPR; apparent).
`Nc1nc2c(ncn2[C@@H]2O[C@H](COP(=O)(O)OP(=O)(O)OP(=O)(O)O)[C@@H](O)[C@H]2O)c(=O)[nH]1` has a pKd of 7.15 (T7, RNA aptamer; ITC; pH 6.5, 20 °C, KCl 50 mM).
`CN(C)[C@@H]1C(=O)C(C(N)=O)=C(O)[C@@]2(O)C(=O)C3=C(O)c4c(O)cccc4[C@@](C)(O)[C@H]3[C@H](O)[C@@H]12` has a pKd of 6.22 (T8, RNA aptamer A50U; fluorescence titration; pH 7.5, 25 °C, MgCl2 10 mM).
With `CCN(CC)c1ccc2c(-c3ccc(S(=O)(=O)NCCC(=O)NCCCC[C@H](NC(=O)CCNS(=O)(=O)c4ccc(-c5c6ccc(=[N+](CC)CC)cc-6oc6cc(N(CC)CC)ccc56)c(S(=O)(=O)[O-])c4)C(=O)NCc4cn(CCOCCOCCOCCNC(=O)CCCC[C@@H]5SC[C@@H]6NC(=O)N[C@@H]65)nn4)cc3S(=O)(=O)[O-])c3ccc(=[N+](CC)CC)cc-3oc2c1` the pKd was 7.14 (T9, RNA aptamer, dimerized, 6-nt linker; fluorescence titration; pH 7.5, KCl 100 mM).

Some of these lines once more:
`Nc1nc2c(ncn2[C@@H]2O[C@H](COP(=O)(O)OP(=O)(O)OP(=O)(O)O)[C@@H](O)[C@H]2O)c(=O)[nH]1` has a pKd of 7.15 (T7, RNA aptamer; ITC; pH 6.5, 20 °C, KCl 50 mM).
